Published values collected from several papers.
Lines come from different studies, so protocols differ. Values joined by “and” are separate records of one study, mostly repeats; a detail may differ.
Target: Focal adhesion kinase 1 (PTK2, Homo sapiens, UniProt Q05397)

SMILES | assay | setting | how to read | measurement | value
CN1CCN(c2ccc(Nc3ncc(Cl)c(Nc4ccccc4P(C)(C)=O)n3)cc2Br)CC1 | enzyme activity, inhibitor | 0.1 µM |  | inhibition | 87.5%
COc1ccc(NC(=O)Nc2ccc3c(c2)C(=O)N(C(C)CO)CC(C)C(CN(C)Cc2ccc4c(c2)OCO4)O3)cc1 (stereo not drawn) | kinase activity, KinaseProfiler | 0.03 µM, species human | relative to: control | remaining activity | 85%
CNC(=O)C1CCN(c2cc(C)c(F)cc2NC(=O)c2ccc(-c3cc(O)ccc3C)c(C)c2)CC1 | binding, competition with immobilised ligand | 1 µM |  | remaining binding | 100%
C=CC(=O)Nc1cccc(-c2cnc3[nH]cc(C(=O)NC(C)(C)C)c3n2)c1 | kinase activity | 0.1 µM |  | inhibition | 4% and 1%
COc1cc(Nc2nccc(-c3cnn4nc(OC)ccc34)n2)cc(C(F)(F)F)c1 | binding, competition with immobilised ligand | 1 µM |  | remaining binding | 100%
CN1CCN(Cc2ccc(NC(=O)c3cccc(C#Cc4cnc(N)c5ncccc45)c3)cc2C(F)(F)F)CC1 | cell-free assay, competition with immobilised ligand | 0.5 µM |  | remaining binding | 100%
Cc1cccc(O[C@H]2CCC[C@@H](C(C)CNCc3ccncc3)C2)c1 (relative stereo) | enzyme activity, inhibitor | 1 µM |  | inhibition | -11%
C=CC(=O)N1CCc2ccc(-n3c(=O)ccc4cnc5ccc(-c6cnn(C)c6)cc5c43)cc21 | KINOMEscan | 1 µM | relative to: DMSO control | remaining binding | 95%
COc1c(Cl)cccc1Nc1c(-c2ccncc2C#C[C@@]2(C)CCCN2C(=O)/C=C/CN(C)C)[nH]c2c1C(=O)NCC2 | binding, competition with immobilised ligand | 3 µM |  | remaining binding | 95%
CCN1CCN(Cc2ccc(C(=O)Nc3ccc(C)c(NCc4cnc5[nH]ccc5c4OC)c3)cc2C(F)(F)F)CC1 | binding, competition with immobilised ligand | 1 µM |  | remaining binding | 98%
CNS(=O)(=O)Nc1nccc(Cc2c(C)c3ccc(Oc4ncccc4F)cc3oc2=O)c1F | binding, competition with immobilised ligand | 10 µM |  | remaining binding | 100%
NC(=O)[C@@H](O)C[C@H]1CCc2sc3ncnc(O[C@H]4CC[C@H](N5CCOCC5)CC4)c3c21 | enzyme activity, inhibitor | 10 µM |  | inhibition | 15%
C=CC(=O)N1CCCC(n2c(=O)c3ncccc3n(Cc3ccc(Oc4ccccc4)cc3)c2=O)C1 (stereo not drawn) | cell-free assay, competition with immobilised ligand | 1 µM |  | remaining binding | 78%
CNC(=O)C[C@H](Cc1ccc(C#N)cc1)NC(=O)c1cc(-c2ccc(CN[C@H](C)c3ccc(C)cc3)o2)ccc1Cl | enzyme activity, inhibitor | 1 µM |  | activity vs control | 105%
Nc1ncc(-c2cc(-c3cnn(CC(F)(F)F)c3)ncc2F)nc1C(=O)NC1CNCC(F)C1 (stereo not drawn) | enzyme activity | 1 µM | relative to: DMSO control | remaining activity | 97.9%
CNC1C[S+]2CC[S+]3CC[S+](C1)[Ru-4]321([N]=C=S)[n]2c3ccc(OC)cc3c3c4c(c5cc(F)c[n+]1c5c32)C(=O)NC4=O (stereo not drawn) | KinomeScan | 0.1 µM | relative to: untreated | remaining binding | 90%
Cc1ccc(-c2c(/C=C(\C#N)C(=O)NC(C)C)n(CCCO)c3ncnc(N)c23)cc1 | cell-free assay, competition with immobilised ligand | 1 µM |  | remaining binding | 92%
O=C(Nc1ccc(Oc2ncnc3[nH]cc(-c4ccccc4)c23)c(F)c1)c1c2n(n(-c3cc(F)ccc3F)c1=O)CCCC2 | enzyme activity, inhibitor | 0.5 µM |  | inhibition | -4%
CC(=O)N1c2ccc(-c3ccc(CNC(=O)c4cn5cc(-c6cnc(N)nc6)nc(N6CCOCC6)c5n4)cc3)cc2CC[C@@H]1C | KINOMEscan | 10 µM |  | remaining binding | 92%
COCC12C(=O)NC3C4(C(OC)CC1O)C1CC5(O)C(OC)C(O)C(OC(C)=O)(C1C5OC(=O)c1ccccc1)C3(O)C(OC)C24 (stereo not drawn) | kinase activity, inhibitor, ProQinase kinase profiling | 25 µM | relative to: control | remaining activity | 101% and 110%
C[C@H]1CN(C(=O)c2cn(-c3ccnc(N)n3)c3cc(C#CC4(O)CCCCC4)ccc23)CCN1 | enzyme activity, inhibitor, FRET | 1 µM |  | inhibition | 2%

For quick reference, copied from above:
SMILES | assay | setting | how to read | measurement | value
CNC1C[S+]2CC[S+]3CC[S+](C1)[Ru-4]321([N]=C=S)[n]2c3ccc(OC)cc3c3c4c(c5cc(F)c[n+]1c5c32)C(=O)NC4=O (stereo not drawn) | KinomeScan | 0.1 µM | relative to: untreated | remaining binding | 90%
Cc1ccc(-c2c(/C=C(\C#N)C(=O)NC(C)C)n(CCCO)c3ncnc(N)c23)cc1 | cell-free assay, competition with immobilised ligand | 1 µM |  | remaining binding | 92%
